Measured values pooled from the literature.
A part holds a random share of what one study measured.

Sample 1 — technique: RNA Bind-n-Seq; molecule type: RNA; matrix: in vitro; tested at: 365 nM; baseline: no-protein control; reading: higher = stronger binding; measurement: RBNS enrichment (R)
Target: RNA binding protein fox-1 homolog 2, RRM domain, GST-SBP tag (RBFOX2, Homo sapiens, UniProt O43251-10, residues 100-194)
Setting: natural RNA segment, single round, ends assumed
Shared flanks, not repeated: GGGAGUUCUACAGUCCGACGAUC … UGGAAUUCUCGGGUGCCAA
Construct (chain): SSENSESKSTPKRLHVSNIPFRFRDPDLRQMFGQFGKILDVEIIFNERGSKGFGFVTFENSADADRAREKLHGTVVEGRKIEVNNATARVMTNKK
AAAGUUAGAGUGCUGUAGUUAUGAAGUCAUACAUUUUUGAUAAAAUACCUGUGGAAAACCAGGGAUCCUCUCCUGUUUCUCUCUCUUGCCUCCCCCUUUCCCUCCAUUCC: 0.675
GCCAGGACCCCAUGCUUCCUUUACUCUGUCUCCUCAUCUCUGUACCUCCCCUGACACCCCAGUCCUGGUUGGCCCUUUCUCCUGCCUUGCCCUGAAGUCUUACCUUCUCC: 1.4
AAAAAGGACUUAAUUUCUACUACUGCACUAUCUGUUGUGAGAUAAUUAAACAUGCUAUUUAAUUGUGUGCCUGGCUAUGAGGUUGUGCUAUUUCAUGCUACAUGUGUGAC: 0.776
UUGGGGGCCAUACCUGUUCCAGCUCUGUUCCCAGGGUGGGGCAGGGAGGUGGGGGUUGGGGGAGUAGUGGGGCACGGCUCCUAAGAUCCAGCCCCCAUACUGACAGACGG: 0.304
AACUCUCAUGUAGGAUUUUUAAAGGACCGGUAAAGAAUGGUGUUUGAGAAAUGGUGUAUGAUGCCUGGUGGUGGUAGGGGUGCGUAUUGAAACCCAGCGCGCAGUUCUCU: 1.27
AUUUUUCCAUAAAAUAGUUGUGAUUAUAUUUUUGUUUUAUAUAGGUCCCAAAUUAUAAUUGUCAAAUAUAUAUUUUAAAUUAAUAAAAGUUGUCAUUCUUAGGAAUUUGG: 1.38
ACUUUACUACAGUUGUGAAUUAGUUUAAACCGUACAAUGUUGUUAUCAUAUCAUGCUUCAACUAUUAAAUUAAGCCCAUCAUAUCAUAGCACUAAAAAGAUUGAGUUAAA: 0.304
ACACUCAGGCUAAGAAGGAGCGGGUCACCACAGACAAGAGUGGGGCCAUAUGUAGCACAGCAAUAUUCCAGAUGCUGGUGGGUAUUGCUGCUGCCCUAGAGCAAUGGCUU: 1.17
AAUUUAUUUUAUUAAAAUAACAUAAGGAACCAACUGUAUUGGCUCAAUAAAAACAAAAUUAAAACCCAAAAUCAUUAAGAAAACCUGUAUUCCUGGCUUUCUUACAGACA: 0.421
ACAUCUCAAGGGACUUGCCCAGGACAUGGAACUGUGGCCUCCUUGACAAACCUAUCUCUUGGACUCAAGUUGGAUUGAUCAAGUUGAACCCUUUGAACCUGAUGUGACUU: 0.301
GAAACAUUCUGUCCACAAAGACUAUUUUAAGGCAUAUUCAACUGGUAUUUCAUUUAUUCUUAUGGACAAAGCAAUGCAGCAUCAGGAGAUCAUUGGUGACAUUCUUCAGU: 0.643
CAGAGAUGUCUUAACUUGUCAGGAGUCCUUACCUGACAUGACCCUGUUUCAACAGGAAAGUAGAUGUUUUGUGCUCCUUUUUGGAUUUUAUCUUCUUGCACAUGUUUGUA: 12.4

Sample 2 — technique: protein-binding microarray; molecule type: double-stranded DNA, one strand shown; matrix: in vitro; tested at: 250 nM; setting: 60-bp whole probe; with: salmon DNA 0.4 mg/ml; baseline: random background probes; reading: higher = stronger binding; measurement: log fluorescence; shared flanks, not repeated: GCCTAGCAC … GTCTTGATTCGCTTGACGCTGCTG
Target: Interferon regulatory factor 5, full length, phosphomimetic (IRF5, Homo sapiens, UniProt Q13568-2, residues 1-514, K96S/S451D/S453D/S456D/S462D)
GACGGTTTCCTTCCCCTGACGTGCTAG: 0.643 z-score
CCAGGAAAAGGGATTCAGTTGTGCTAG: -0.318 z-score
TTAGCACTGGGGTATCGATTAGTGCTA: 2.05 z-score
TTAGGTTTCGGGACCGGGTTAGTGCTA: 6.33 z-score
TTTCTTTTGCTTGTTCTTAGCGTGCTA: 5.47 z-score
TAAGGACTGCTTTTCCTTTAGTGCTAG: 0.267 z-score
GATGGTTTCGGGACTGGGGACGTGCTA: 5.93 z-score
TCACTTCCCAATTGTCTTACTGTGCTA: 0.76 z-score
TCACCTTCCCCTCTAGGACTGTGCTAG: 0.138 z-score
GTGGGTTTGAGTCTTCTCCTGTGCTAG: -0.196 z-score
GACGGTCACGGTTTCGGGACGTGCTAG: 1.84 z-score
TTAGAACTGGAGTTTCGATTAGTGCTA: 8.06 z-score
TCAATTTCCATTATTGCACTGTGCTAG: 1.46 z-score
TCACTTTTCGCTTTCTTACTGTGCTAG: 3.55 z-score
GACGGACTGGGGATTCGGGACGTGCTA: -0.641 z-score
GACGGTATCGGGATTCGGGACGTGCTA: 1.49 z-score
ATGACAATGATGTTTTGAGTTGTGCTA: 0.177 z-score
TTAGAATTCAGTTCCGATTAGTGCTAG: 1.23 z-score
TACATTTTCCAAATGCCCCTGTGCTAG: 0.345 z-score
TCTCTTTTTGCTTTCTTTATGTGCTAG: 2.71 z-score
GGCGGTATCGGTTTCGGGACGTGCTAG: 8.39 z-score
GACGAACTGAGTATTGAGACGTGCTAG: -0.0894 z-score
GACGACCTCAGTTTCGAGACGTGCTAG: 4.61 z-score

Sample 3 — technique: RNA Bind-n-Seq; molecule type: RNA; matrix: in vitro; tested at: not given; setting: RNA with constant flanks, ends assumed; baseline: input RNA pool; reading: higher = stronger binding; measurement: bound/input enrichment
Target: RING finger protein unkempt homolog, zinc fingers 1-6, GST-SBP tag (UNK, Homo sapiens, UniProt Q9C0B0, residues 30-357)
Shared flanks, not repeated: GGGAGUUCUACAGUCCGACGAUC … CAACAGAGGAUUGAGCAUCA
Residues (chain): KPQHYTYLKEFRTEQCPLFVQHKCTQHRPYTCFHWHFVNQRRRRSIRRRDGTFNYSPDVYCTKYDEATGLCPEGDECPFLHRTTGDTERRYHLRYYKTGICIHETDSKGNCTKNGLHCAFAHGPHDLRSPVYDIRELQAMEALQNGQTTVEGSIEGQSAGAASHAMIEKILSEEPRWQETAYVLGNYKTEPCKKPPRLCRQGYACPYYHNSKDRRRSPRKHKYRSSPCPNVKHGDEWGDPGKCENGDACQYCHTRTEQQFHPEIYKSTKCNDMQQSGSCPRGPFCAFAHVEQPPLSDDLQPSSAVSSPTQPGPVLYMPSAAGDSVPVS
ACAUUUUCCUCCUAAUAAAUUAUCCUUGUGAUGGGCGACAUGGCCAACAACUCAGUUGCGUACCGCGGUGUGAAGAACUCUUUGAAAGAAGCUAACCAUGAUGGAGACUUUGGAAUUACG: 0.44 ratio
AUGAAAAGACUAAUUGGAUGAAGACUCUCUCUCUGUAAUGAGUUUGUUGUUAAAUAUACAGCCGUUAUGGAAUGAAAAUGAAUACUUUGUCCCAGGCUCCUGGAUACGUUGCAUUUGGCU: 0.0683 ratio
UGGCAAGACUACCAUCCUGUACAAACUGAAGUUGGGGGAGAUUGUCACCACCAUCCCCACUACCGGUGAGUCCAGGACAAGGAGCGGGAAGCAGGAAUGUCGCUUUGAGCCUUGUCGGGG: 0.0788 ratio
CUGUUGGGGUGGGUAUAAAAGAUGGGGUCUGUAAAAUCUUUCUUUCUUAGAAAUUUAUUUCCCCGUUCUGUAGAAAUGGUUGUAUUAGAUGUUCUCUAUCAUUUAAUAAUAUACUUGUGG: 0.825 ratio
CGGGAUGACCAGACUCCCGGACUCCUCAGGCAGUGCCCUUUCCUCCCACUUUUCCUCCCCCACCGCCACAGGCCUCUGCUCCUGCUCCUGCCUGCAUGUUCUCUCUGUUGUUGGAGCCUG: 0.876 ratio
GAAGCCAGCUCUACCGAGGACUCACGUGCUACCAGCAUCCCUGGGAGCCCUUUCAACCUAUUCCGUGACCUUGACAAAGCAGAUGACCUGCCCAGUCACCAAAAAAUAUUUGAUCUAAUG: 0.212 ratio
GUGAAACUGGUUCUUCCAAAGACCAAGUUUUCUAUGGUGUUACCUGAAGUCGAAGCAGCGUCCGCCGAGAUUCCUGGCGUCCGGAGUGUCGUGUUGUUUGGAGUAGAAACGCACGUGUGU: 0.171 ratio
GUCACCCAGCUGUUGCAGUCUUCGCAUAAGGAAUCCAGCUUCGAUGUCAUUCUGUCGGGUGCCGUCCCAGGAAGCACCUCUCUGCACAGUGCUGAGGUUCUGGCUGAGAUGGCCCGGAUC: 0.119 ratio
ACCUAGCCAGUCCAACCUCCACCAUGGGGGCCGUGACCUGGCUACUGCCAGGCAUCUUUCCCGCUUUGUUUGCCCUCACUCCCGAAGGUGGGGUCCUCAAGAAAAUCAUCAGGCACAAGC: 0.126 ratio
ACUCCAAGACUGUGUUCGGGAGUCCUUGGAACUGUGGUCCAUGGUAAAGUUUUACAGGAGUCCGGACCUGGAAAUGUACAGAAAGAAGUCUCAUCUUCCUUUGACCACGUUAUCAAGGAG: 0.0861 ratio
GUUAUUGAAAAACUCUUGACCUCUUACGGAUUCAUUCAGUGUUCAGAACGGCAAGCCCGACUUUUCUUCCACUGUUCACAAUAUAAUGGCAACCUCCAAGACUUAAAAGUAGGAGAUGAU: 0.254 ratio

Sample 4 — technique: protein binding microarray; molecule type: double-stranded DNA, one strand shown; matrix: in vitro; tested at: not given; baseline: not given; reading: higher = stronger binding; measurement: E-score
Target: Histone acetyltransferase KAT6A, winged helix 1, GST fusion (KAT6A, Homo sapiens, UniProt Q92794, residues 1-85)
Setting: 8-mer, flanks averaged, mean of 2 arrays, mostly near background
Target sequence (chain): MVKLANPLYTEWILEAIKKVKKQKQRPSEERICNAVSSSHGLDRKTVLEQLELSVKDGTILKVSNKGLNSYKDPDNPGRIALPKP
ATCCAATG: -0.178
ACTCAACT: -0.251
GTCGAACA: -0.105
CCGGAAAC: 0.14
GTATACAC: 0.145
AAGATTCG: -0.137
AGGCTCAT: -0.171
ACTCAGCC: -0.0767
GCCCAGAC: -0.162
ATAATAAC: 0.0144
AATCGCGA: 0.145
AAGTGGGC: -0.179
CACTAGCG: 0.204
TCTCGAGA: -0.347
CGACCTCG: 0.134
TTCAAGAA: -0.267
AGACTAAC: -0.117
CAACAGGA: -0.268
GACATAAA: 0.0477

Repeated from above (sample 2):
GACGGTCACGGTTTCGGGACGTGCTAG: 1.84 z-score
TTAGAACTGGAGTTTCGATTAGTGCTA: 8.06 z-score
TCAATTTCCATTATTGCACTGTGCTAG: 1.46 z-score
TCACTTTTCGCTTTCTTACTGTGCTAG: 3.55 z-score
GACGGACTGGGGATTCGGGACGTGCTA: -0.641 z-score
GACGGTATCGGGATTCGGGACGTGCTA: 1.49 z-score
ATGACAATGATGTTTTGAGTTGTGCTA: 0.177 z-score
TTAGAATTCAGTTCCGATTAGTGCTAG: 1.23 z-score
TACATTTTCCAAATGCCCCTGTGCTAG: 0.345 z-score
TCTCTTTTTGCTTTCTTTATGTGCTAG: 2.71 z-score
GGCGGTATCGGTTTCGGGACGTGCTAG: 8.39 z-score
